{"data": "Experimental data gathered from unrelated publications", "note": "Protocols differ between the studies behind these lines. ± gives the spread as reported."}
{"SMILES": "Cc1cc(/C=C/C#N)cc(C)c1-n1cnc2cnc(Nc3ccc(C#N)cc3)nc21", "target or system": "HIV-1", "test": "viral replication, single-round infection", "test system": "RT mutant H221Y", "measurement": "EC50", "value": "1.3 ± 0.4 nM"}
{"SMILES": "CCCCCCCCCCCCCCCC(=O)N[C@@H](CCC(=O)NCCOCCOCCC(=O)NCCOCCOCCC(=O)NCCCC[C@H](NC(=O)[C@H](CC(=O)O)NC(=O)[C@H](CC(C)C)NC(=O)[C@H](Cc1ccc(O)cc1)NC(=O)[C@H](CCCCN)NC(=O)[C@H](CO)NC(=O)[C@H](Cc1ccc(O)cc1)NC(=O)[C@H](CC(=O)O)NC(=O)[C@H](CO)NC(=O)[C@@H](NC(=O)[C@H](Cc1ccccc1)NC(=O)[C@@H](NC(=O)CNC(=O)[C@H](CCC(N)=O)NC(=O)[C@@H](CO)NC(=O)[C@@H](N)Cc1c[nH]cn1)[C@@H](C)O)[C@@H](C)O)C(=O)N[C@@H](CCCNC(=N)N)C(=O)N[C@@H](CCCNC(=N)N)C(=O)N[C@@H](C)C(=O)N[C@@H](CCC(N)=O)C(=O)N[C@@H](CC(=O)O)C(=O)N[C@@H](Cc1ccccc1)C(=O)N[C@H](C(=O)N[C@@H](CCC(N)=O)C(=O)N[C@@H](Cc1c[nH]c2ccccc12)C(=O)N[C@@H](CC(C)C)C(=O)N[C@@H](CC(C)C)C(=O)N[C@@H](CC(N)=O)C(=O)N[C@H](C(=O)NCC(=O)NCC(=O)N1CCC[C@H]1C(=O)N[C@@H](CO)C(=O)N[C@@H](CO)C(=O)NCC(=O)N[C@@H](C)C(=O)N1CCC[C@H]1C(=O)N1CCC[C@H]1C(=O)N1CCC[C@H]1C(=O)N[C@@H](CO)C(N)=O)[C@@H](C)O)C(C)C)C(=O)O", "test system": "Sprague-Dawley rat, male", "setting": "subcutaneous, 100 µg/kg once daily, 14 days", "measurement": "total cholesterol", "value": "0.61 ± 0.14 mmol/L"}
{"SMILES": "COc1ccc(-c2oc3c(CC=C(C)C)c(O[C@@H]4O[C@H](CO)[C@@H](O)[C@H](O)[C@H]4O)cc(O)c3c(=O)c2O[C@@H]2O[C@@H](C)[C@H](O)[C@@H](O)[C@H]2O[C@@H]2O[C@@H](C)[C@H](O)[C@@H](O)[C@H]2O)cc1", "target or system": "HEK293T", "test": "entry of SARS-CoV-2 spike pseudotyped lentivirus", "setting": "10 µM", "measurement": "inhibition", "value": "50 to 90%"}
{"SMILES": "CC[C@@H](C)[C@@H](NC(=O)[C@@H](CCCCN)NC(=O)[C@@H](CCCCN)NC(=O)[C@@H](CC(C)C)NC(=O)[C@@H](Cc1c[nH]c2ccccc12)NC(=O)CN)C(=O)NCC(=O)N[C@H](CCCCN)C(=O)N[C@H](CCCCN)C(=O)N[C@@H](C(=O)N[C@H](CCC(=O)O)C(=O)N[C@H](CCCNC(=N)N)C(=O)N[C@@H](C(=O)NCC(=O)N[C@H](CCC(N)=O)C(=O)N[C@H](Cc1c[nH]cn1)C(=O)N[C@@H](C(=O)N[C@H](CCCNC(=N)N)C(=O)N[C@H](CC(=O)O)C(=O)N[C@H](C)C(=O)N[C@@H](C(=O)N[C@@H](C(=O)N[C@H](CCC(N)=O)C(=O)N[C@@H](C(=O)N[C@@H](C(=O)NCC(=O)N[C@@H](C(=O)N[C@H](C)C(=O)N[C@H](CCC(N)=O)C(=O)N[C@H](CCC(N)=O)C(=O)N[C@H](C)C(=O)N[C@H](C)C(=O)N[C@H](CC(N)=O)C(=O)N[C@@H](C(=O)N[C@H](C)C(=O)N[C@H](C)C(=O)N[C@@H](C(=O)N[C@H](CC(C)C)C(=O)N[C@H](CCCCN)C(N)=O)[C@H](C)O)C(C)C)C(C)C)[C@H](C)CC)[C@H](C)O)[C@H](C)CC)[C@H](C)O)[C@H](C)O)C(C)C)[C@H](C)CC", "target or system": "Pseudomonas aeruginosa", "test": "broth microdilution", "test system": "ATCC 27853, CAMHB", "measurement": "MIC", "value": "> 1020 µg/mL"}
{"SMILES": "O=C(NNC(=S)Nc1ccc(Cl)c(Cl)c1)c1ccccn1", "target or system": "Huh-7", "test": "pseudovirus entry", "setting": "together with: MERS-CoV spike pseudovirus", "measurement": "EC50", "value": "1100 nM"}
{"SMILES": "CSCC[C@@H]1NC(=O)CNC(=O)[C@H](CCC(=O)O)NC(=O)[C@@H]2CSSC[C@H](NC(=O)[C@@H](N)Cc3ccc(O)cc3)C(=O)N[C@@H](CCC(N)=O)C(=O)N[C@@H](CCCCN)C(=O)N[C@@H](Cc3c[nH]c4ccccc34)C(=O)N[C@@H](CCSC)C(=O)N[C@@H](Cc3c[nH]c4ccccc34)C(=O)N[C@@H]([C@@H](C)O)C(=O)N[C@H]3CSSC[C@H](NC(=O)[C@H](C(C)C)NC1=O)C(=O)N[C@@H](CCCNC(=N)N)C(=O)N[C@@H](CC(C)C)C(=O)N[C@@H](Cc1c[nH]c4ccccc14)C(=O)N[C@H](C(=O)N[C@@H](CCCCN)C(=O)N[C@@H](CCCCN)C(=O)N[C@@H](CCCCN)C(=O)N[C@@H](CC(C)C)C(=O)N[C@@H](Cc1c[nH]c4ccccc14)C(=O)O)CSSC[C@H](NC(=O)[C@H](CCCCN)NC(=O)[C@H](CCCNC(=N)N)NC(=O)[C@H](CCC(=O)O)NC(=O)[C@H](CO)NC(=O)[C@H](CC(=O)O)NC3=O)C(=O)N2", "target or system": "ND7/23", "test": "peak TTX-sensitive sodium current", "setting": "0.001 µM, 1 peak", "measurement": "inhibition", "value": "5.6 ± 3.6%"}
{"SMILES": "C[C@@H]1O[C@@H](O[C@H]2[C@H](O)[C@@H](O)[C@H](OC[C@H]3O[C@@H](O[C@H]4CC[C@@]5(C)[C@@H](CC[C@]6(C)[C@@H]5C=C[C@]57OC[C@@]8(CCC(C)(C)C[C@H]85)[C@@H](O)C[C@]76C)[C@]4(C)CO)[C@H](O)[C@@H](O)[C@@H]3O)O[C@@H]2CO)[C@H](O)[C@H](O)[C@H]1O", "target or system": "HEK293T", "test": "entry of SARS-CoV-2 spike pseudotyped lentivirus", "setting": "10 µM", "measurement": "inhibition", "value": "50 to 90%"}
{"SMILES": "O=C(CSc1[nH]c2ccccc2c1SCC(=O)Nc1ccc(Cl)c(Cl)c1)Nc1ccc(Cl)c(Cl)c1", "target or system": "HEK293T", "test": "Gaussia luciferase expression", "setting": "up to 10 µM, 24 h, without RdRp", "measurement": "reporter expression", "value": "no effect"}
{"SMILES": "CC(C)C[C@H](NC(=O)[C@H](CC(=O)O)NC(=O)[C@H](CCC(=O)O)NC(=O)[C@H](C)NC(=O)[C@H](CCC(=O)O)NC(=O)[C@H](Cc1c[nH]cn1)NC(=O)[C@H](CC(N)=O)NC(=O)[C@H](Cc1ccccc1)NC(=O)[C@H](Cc1ccccc1)NC(=O)[C@H](CC(=O)O)NC(=O)[C@H](CC(C)C)NC(=O)[C@H](Cc1ccccc1)NC(=O)[C@@H](N)[C@@H](C)O)C(=O)N[C@@H](Cc1ccccc1)C(=O)N[C@@H](CSCc1ccc(S(=O)(=O)F)cc1)C(=O)O", "target or system": "HEK293T-ACE2", "test": "pseudovirus infection", "setting": "concentration not given", "measurement": "inhibition", "value": "100%"}
{"SMILES": "CCOc1cccc(NC(=O)CSc2cn(C(=O)OC(C)(C)C)c3ccccc23)c1", "target or system": "HEK293T", "test": "Gaussia luciferase expression", "setting": "up to 10 µM, 24 h, without RdRp", "measurement": "reporter expression", "value": "no effect"}
{"SMILES": "C[C@@H]1Cc2ccc(C(=O)N[C@@H](Cc3ccccc3)C(=O)O)c(O)c2C(=O)O1", "target or system": "HK-2", "measurement": "IC50", "value": "38000 nM"}
{"SMILES": "Cc1cccc(NC(=O)CSc2c[nH]c3ccccc23)c1", "target or system": "HEK293T", "test": "Gaussia luciferase expression", "setting": "up to 10 µM, 24 h, without RdRp", "measurement": "reporter expression", "value": "no effect"}
{"SMILES": "Cc1cc(/C=C/C#N)cc(C)c1Nc1nc(Nc2ccc(C#N)cc2)ncc1N", "target or system": "HIV-1", "test": "viral replication, single-round infection", "test system": "RT mutant V106A/F227L", "measurement": "EC50", "value": "1.3 ± 0.4 nM"}
{"note": "Some of these lines once more:"}
{"SMILES": "O=C(NNC(=S)Nc1ccc(Cl)c(Cl)c1)c1ccccn1", "target or system": "Huh-7", "test": "pseudovirus entry", "setting": "together with: MERS-CoV spike pseudovirus", "measurement": "EC50", "value": "1100 nM"}
{"SMILES": "CCOc1cccc(NC(=O)CSc2cn(C(=O)OC(C)(C)C)c3ccccc23)c1", "target or system": "HEK293T", "test": "Gaussia luciferase expression", "setting": "up to 10 µM, 24 h, without RdRp", "measurement": "reporter expression", "value": "no effect"}
